Measured values of several laboratories.
Compare with care: the assays were run in different laboratories. ± marks the error that the study gave.
Target: Pancreatic triacylglycerol lipase (PNLIP, Sus scrofa, UniProt P00591)
Observed: enzyme activity
Sequence (P00591 1-450, as in one of the studies): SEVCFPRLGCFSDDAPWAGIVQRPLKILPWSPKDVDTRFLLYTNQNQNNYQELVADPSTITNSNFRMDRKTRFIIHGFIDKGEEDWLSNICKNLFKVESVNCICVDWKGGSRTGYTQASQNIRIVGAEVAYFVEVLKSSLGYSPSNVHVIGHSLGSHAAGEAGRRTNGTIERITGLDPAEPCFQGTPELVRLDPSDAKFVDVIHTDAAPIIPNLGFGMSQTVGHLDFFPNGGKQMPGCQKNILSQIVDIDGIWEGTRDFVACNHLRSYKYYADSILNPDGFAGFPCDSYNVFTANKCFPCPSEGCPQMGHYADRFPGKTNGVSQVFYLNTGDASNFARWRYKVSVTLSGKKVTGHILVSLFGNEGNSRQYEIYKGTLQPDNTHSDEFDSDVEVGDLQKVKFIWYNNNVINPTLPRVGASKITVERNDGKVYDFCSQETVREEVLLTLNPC

For `O=C(OC[C@@]1(O)C(=O)C=C[C@@H](OC(=O)c2ccccc2)[C@@H]1O)c1ccccc1`, the IC50 was 2.78 µM (inhibitor, absorbance).
For `C=C1CC[C@@H]2O[C@@]2(C)CC[C@H]2[C@H]1C[C@]2(C)C(=O)/C=C/C(C)(O)CO` (stereo partly shown), the IC50 was 193 µM (inhibitor, absorbance).
The IC50 of `COc1cc(O)c(C(=O)O)c(C2=C(C)C[C@@H](O)C2=O)c1` is reported as 20.8 µM (inhibitor, fluorescence; pH 8).
`Oc1ccc(CCC(O)CC(O)CCc2ccc(O)cc2)cc1` (stereo not shown) gave an IC50 of 111 µM (inhibitor, absorbance).
For `O=C(O[C@@H]1Cc2c(O)cc(O)cc2O[C@@H]1c1cc(O)c(O)c(O)c1)c1cc(O)c(O)c(O)c1`, the IC50 was 863 ± 107 µM.
The IC50 of `O=C(O[C@H]1Cc2c(O)cc(O)cc2O[C@@H]1c1ccc(O)c(O)c1)c1cc(O)c(O)c(O)c1` is reported as 13.6 µM (inhibitor).
`C=C1CCC(O)C(C)=CCC2C1CC2(C)C(=O)C=CC(C)(C)O` (stereo not shown) has an IC50 of 16.1 µM (inhibitor, absorbance).
The IC50 of `O=C(O[C@@H]1Cc2c(O)cc(O)cc2O[C@@H]1c1ccc(O)cc1)c1cc(O)c(O)c(O)c1` is reported as 43.9 µM (inhibitor).
For `COc1ccc(/C=C/C(=O)CC(=O)/C=C/c2cc(OC)c(OC)c(OC)c2)cc1`, the IC50 was 169 µM (inhibitor, absorbance).
The IC50 of `O=C(O[C@@H]1Cc2c(O)cc(O)cc2O[C@@H]1c1cc(O)c(O)c(O)c1)c1cc(O)c(O)c(O)c1` is reported as 13.3 µM (inhibitor).
`COc1cc(/C=C/C(=O)CC(=O)/C=C/c2ccc(O)cc2)ccc1O` gave an IC50 of 95.4 µM (inhibitor, absorbance).
With `C=C1CCC(=O)C(C)CCC2C1CC2(C)C(=O)C=CC(C)(C)O` (stereo not shown) the IC50 was 16.9 µM (inhibitor, absorbance).
The IC50 of `Oc1cc(O)c2c(c1)O[C@H](c1cc(O)c(O)c(O)c1)[C@H](O)C2` is reported as 51.7 µM (inhibitor).

Excerpt of the above:
`C=C1CCC(O)C(C)=CCC2C1CC2(C)C(=O)C=CC(C)(C)O` (stereo not shown) has an IC50 of 16.1 µM (inhibitor, absorbance).
